# Published values pooled from the literature.
# Each numbered part is a random draw from the data of one study; scales do not carry over between parts.

# Sample 1
# Target: Sal-like protein 4, full length isoform A (SALL4, Homo sapiens, UniProt Q9UJQ4, residues 1-1053)
# Sequence of UniProt Q9UJQ4 (whole entry, looked up): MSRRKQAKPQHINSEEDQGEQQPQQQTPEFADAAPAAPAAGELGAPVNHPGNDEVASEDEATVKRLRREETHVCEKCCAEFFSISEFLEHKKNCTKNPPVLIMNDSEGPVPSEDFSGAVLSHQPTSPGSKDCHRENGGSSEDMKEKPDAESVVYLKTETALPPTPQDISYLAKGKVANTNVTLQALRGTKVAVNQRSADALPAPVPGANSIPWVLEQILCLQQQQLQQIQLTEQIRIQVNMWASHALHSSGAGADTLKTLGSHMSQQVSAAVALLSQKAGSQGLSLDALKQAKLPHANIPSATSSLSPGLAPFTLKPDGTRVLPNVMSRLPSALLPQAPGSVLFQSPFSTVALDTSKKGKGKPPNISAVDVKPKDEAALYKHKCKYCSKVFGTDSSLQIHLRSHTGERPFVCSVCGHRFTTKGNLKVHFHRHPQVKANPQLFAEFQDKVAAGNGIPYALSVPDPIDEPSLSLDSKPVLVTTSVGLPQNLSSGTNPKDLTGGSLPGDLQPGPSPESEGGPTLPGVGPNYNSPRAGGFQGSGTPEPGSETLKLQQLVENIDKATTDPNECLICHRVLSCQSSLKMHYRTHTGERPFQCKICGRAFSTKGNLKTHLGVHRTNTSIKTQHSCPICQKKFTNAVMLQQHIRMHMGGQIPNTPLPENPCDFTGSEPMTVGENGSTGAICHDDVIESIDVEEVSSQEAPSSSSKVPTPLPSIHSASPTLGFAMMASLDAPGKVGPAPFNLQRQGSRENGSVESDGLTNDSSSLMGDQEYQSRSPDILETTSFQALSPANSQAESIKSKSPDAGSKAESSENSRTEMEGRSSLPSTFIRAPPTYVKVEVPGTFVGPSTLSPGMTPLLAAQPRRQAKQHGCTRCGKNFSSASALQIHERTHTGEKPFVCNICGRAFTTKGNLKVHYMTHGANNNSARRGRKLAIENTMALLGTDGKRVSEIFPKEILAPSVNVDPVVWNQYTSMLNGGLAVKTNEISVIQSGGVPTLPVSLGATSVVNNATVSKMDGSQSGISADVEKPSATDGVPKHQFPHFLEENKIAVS
# Method: universal PBM
# Molecule type: double-stranded DNA, one strand shown
# Matrix: in vitro
# Tested at: 600 nM
# Setting: 8-mer, flanks averaged, mean of replicates
# Direction: higher = stronger binding
Oligonucleotide,E-score
TCTGTTCA,0.0156
CGAAACTC,-0.191
GAAGCCAC,-0.0178
CCGTGCTC,-0.254
GGCTTTAA,0.0873
ACTTTCTA,0.178
ACTTTACG,0.217
CCATTAAC,0.245
CTGTATTC,0.144
GGCATTAC,-0.0338
CACAATAG,0.148
CCTAAGCG,-0.279
GAGTATGC,0.0756
AGTTAAGA,0.0775
GATTGGGA,-0.0508
AGTGACCA,-0.098
ACGTGCAT,0.128
ATTATAAG,0.319
CGGCGCAC,-0.319
CTTATCGA,0.18
CCACTCCC,-0.194
TGCGCAAA,0.00411
AGCTGGGC,-0.298
GGTCACTA,-0.0257
CGACTGTA,-0.173

# Sample 2
# Target: RNA binding protein fox-1 homolog 2, RRM domain, GST-SBP tag (RBFOX2, Homo sapiens, UniProt O43251-10, residues 100-194)
# Method: RNA Bind-n-Seq
# Molecule type: RNA
# Matrix: in vitro
# Tested at: 365 nM
# Setting: natural RNA segment, single round, ends assumed
# Baseline: no-protein control
# Direction: higher = stronger binding
# All sequences stand within: GGGAGUUCUACAGUCCGACGAUC … UGGAAUUCUCGGGUGCCAA
# Target sequence (chain): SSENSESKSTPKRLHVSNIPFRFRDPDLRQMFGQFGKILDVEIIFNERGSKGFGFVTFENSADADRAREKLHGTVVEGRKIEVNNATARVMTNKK
Oligonucleotide,RBNS enrichment (R)
GCUGUUUCCUUAGUCUUCAUUUUAUAAAAGUUGUUGCCUUUUUAACGGAGUGUCACUUUCAACCGGCCUCCCCUACCCCUGCUGGCCGGGGAUGGAGACAUGUCAUUUGU,0.254
CAUAUUAUUUACCCCACUGUAACAUCAUGUAAACUAAGUAUGUUUUUAAACAAUUUUUAAGACUUGUAAUUACCCUGAAAAUAAGGUUUAUAAUGCAAAGACCAGCUCCU,0.277
CACCACUAUGAAACAUUGACUUGCUAUUUCAAAUUCCUGGAUUCUAAGGAAUUUCUCAUCUGACAAUGGAACAGAAAUAGAAGCAUGGCCCCCACAGGCUGGGGACCAGU,0.662
AAACUCCUUGGGAGGAGAGAGGGCUUCUUUUGGUUUCCCUGGAGUGAGACAGCCAGGUGUCUUUCUUUUGCGGGGGGACACUUCAGACCCAUCAAUAUGGAAUUUUGGGA,0.605
UGAAAGGCACUUUUCAUUCCACUUUAACUUGAUUUUUUAAAUUCCCUUAUUGUCCCUUCCAAAAAAAAGAGAAUCAAAAUUUUACAAAGAAUCAAAGGAAUUCUAGAAAG,0.6
UGGCCUUCUGACAGGUUUCUUUUUAUUAGAACCACAGUUUUGACUUUGUUUUGGUAAGCUGUCCUCCAGGAUCAGCACUGCCUGUGAAUACUUUGAACUGUCUCCUGCUU,0.213
CCAGGUCAUACUGAUGCAAGAAGUGGGUUCCCAUGGUCUUGGGCAGCUCUGCCCCUGUGGCUUUGUAGGGUACAGCCUCCCUCCUGGCUGCUUUCACGGCUGUUGUUCAG,0.879
UUUGCUUCCUAGCUGAUGUCAUCCCACAUUGGUACAGGUGUUAUUCAGUACUGGGUGGUUCAGCAGGGAAGCCGGGUGGGACCAGUGUGUCUGUCAUGAAACCACUAACU,0.195
AGACAGUGAUGCCUGCCCGCACCCUGGCCUGGUCCCUGGUCCUUCACUGGCGCCUUCUCGGAGCUGGCCCAGGGGGCCUGGAGCAUGGACAGUGUGGGCGCUCUCCCUAC,0.339
CAACUUGUCUUUUCAGCCGGCUGACCUGCAGCCUGUACAGCUCUGAAGCAUCUUUAAAUACGAUAGAAAAUAAGCUACUCAAGAAGCUGGUCUGUGUCCUUUUGCCUUAG,0.454
UUUGAAAUUUGUAUUUAAUUUCACAGUGACCUAGAGCUAAGGUGCUCCCGGUUGUGGCAAUAGGAGCCACAAGUAUUUUCUUUCUUUCUUUCGUUCUUUCUUUCUUUCUU,1.75
ACAAUUGCAUCUGUUACUAGUUUUGUAGGCUUUAAUCCUAGUGUGCGUUAAAUAUUGGGCAAAUUGCACUUGACUAAUUUUUGAAGAAAAGUAAUUUAUUCUGUCAAGAA,1.84

# Sample 3
# Target: RING finger protein unkempt homolog, zinc fingers 1-6, GST-SBP tag (UNK, Homo sapiens, UniProt Q9C0B0, residues 30-357)
# Sequence of UniProt Q9C0B0 (30-357, looked up): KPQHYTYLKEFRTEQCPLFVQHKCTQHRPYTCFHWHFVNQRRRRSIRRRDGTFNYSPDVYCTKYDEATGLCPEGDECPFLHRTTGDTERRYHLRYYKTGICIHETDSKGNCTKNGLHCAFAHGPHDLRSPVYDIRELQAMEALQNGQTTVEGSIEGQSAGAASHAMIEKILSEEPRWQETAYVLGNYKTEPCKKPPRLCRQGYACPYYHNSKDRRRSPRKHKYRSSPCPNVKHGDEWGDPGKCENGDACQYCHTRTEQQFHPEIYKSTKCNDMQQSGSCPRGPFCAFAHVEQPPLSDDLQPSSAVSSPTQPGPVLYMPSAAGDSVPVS
# Method: RNA Bind-n-Seq
# Molecule type: RNA
# Matrix: in vitro
# Tested at: not given
# Setting: RNA with constant flanks, human and mouse sites, ends assumed
# Baseline: input RNA pool
# Direction: higher = stronger binding
# All sequences stand within: GGGAGUUCUACAGUCCGACGAUC … CAACAGAGGAUUGAGCAUCA
Oligonucleotide,bound/input enrichment [ratio]
GUUAAGAUGAAGAUGAAGUACUACAUCGAGUACAUGGAGAGCACCCGCGAUGACAGUCCCCUUUACAUCUUCGAUAGCAGCUAUGGCGAACACCCCAAAAGAAGGAAACUUUUGGAAGAC,0.267
UUCUAAAAUGGGGCCAUGACGGGAACUGUGGUUGUAACCAAGCUGCUUGCCUGCAUCGAUUAACUCUCUCUGGGUUCCUGGGUGACUUCAUAUGAUGAGUGGAAACUACUAGUUGGUUUA,0.203
GAAGAGAAUGAGGAGGACAGAGAAGUGUCAAGUGAAAAAGAAUUAAAUGGAGAUUCGGAUUUAGAUCCUGAAAACGAGAGUGAAGAAGAAUGAAGACAGAUGCAGCCAGCCAGUCACACG,0.411
UAUGAUCAAGUUCUUGUGGAGUCAGACAAUGAGAACCGCAUGGAGGAGAGCAAAGCACUCUUUAGAACAAUUAUCACCUACCCCUGGUUCCAGAACUCCUCUGUGAUUCUGUUCUUAAAC,0.357
GGACUGCAGAACGGCUCAGACUUGCAGUUCAUCGAGAUGCAGAGAGAUGCCAAUAGACAAAUUAGUGAAUACAAAUUCAAGCUUUCGAAAGCAGAACAAGACAUAGCUACCUUGGAACAA,4.88
CUGUAUUUAUAAAUGUAUAAUGUAUUUAGCUACUUUUUGGUUUAAAUGAACUUGUUGGGUUAGCUUGGUAAAUGUUAUAAUUUUUACUAUUUUCUACAAAGAAAAUAUUUUCUAAUUUAA,4.91
AAGAUGGACAACAGUGUUUUUCAUUGGUUUGUAUCAUUACCAUAUCAUUCCUUUUGCUUAAUAAGCAUUCUUGCUUUGUAACUCUGACUCCUUUUCUCAUUUCUAUAAAGCACAUGUUAU,0.131
GAAUAUAUAGGUGAAGAAGAAGCUACAUUAGUUGAUUUUGUUUGUUCUAAGGUUAUGGCUCAUAGUUCACCCCAGAGCAUUUUAGAUGAUGUUGCCAUGGUACUUGAUGAAGAAGCAGAA,3.39
AUUGUGAAAAAGCUGCCUAUUGUUGAAACUCUGGGCUGCUGUAAUGUGAUUUGUUCAGAUAAAACUGGAACACUGACGAAGAAUGAAAUGACUGUUACUCACAUAUUUACUUCAGAUGGU,0.116
GAUGUCAACAGCUGGCUCCUCACCUUUGGAUUCCAGCUGCACAACGUGAUACCUGGCUAUCCCAAGCCAGACACAGAUGCCAUGGAACCCUCCUACGAGCUCGUACACACACAGAUGAAA,0.192
GUUGCUUAUGAACGUGGCCAGUGUGACCUGGAGCUCAUCAAUGUUUGCAAUGAGAAUUCCCUCUUCAAAAGCCUUUCUCGCUACUUAGUCCGUCGAAAGGAUCCAGAAUUGUGGGGUAGU,0.156

# Sample 4
# Target: Fragile X messenger ribonucleoprotein 1, C-terminal low-complexity region (Fmr1, Mus musculus, UniProt P35922)
# Method: RNA Bind-n-Seq
# Molecule type: RNA
# Matrix: in vitro
# Tested at: 200 nM
# Setting: whole 134-nt RNA, ends assumed
# With: 150 mM LiCl
# Baseline: input library
# Direction: higher = stronger binding
# Each molecule: 7-deaza-guanosine replaces G
# All sequences stand within: GGGAGUUCUACAGUCCGACGAUC … UGGAAUUCUCGGGUGUCAAGG
Oligonucleotide,log2 enrichment
UCCUGUGCUACACAUCGUAUGUACCGAAUCGGUUUUUUGGUUUUUUGGGGUUUUUUGGGGAAAGUAUUAUGUUACGCCGUUCGGAUCUGC,-1.34
AGUCCUGUGCUACACAUCGUAUGUACCGAAUCGGUUUUUGGGGUUUUUGGGUUUUUGGAAAGUAUUAUGUUACGCCGUUCGGAUCUGCAC,-0.939
UAACGUUAGAGGAGGAUCUGAUGGAUAUGGCAGUGGACGUGGAUUUGGGGAUGGCUAUAAUGGGUAUGGAGGAGGACCUGGAGGUGGCAA,0.0233
AGUCCUGUGCUACACAUCGUAUGUACCGAAUCGGGGUGGGGUUUGGGGUUUUUGGGGAAAGUAUUAUGUUACGCCGUUCGGAUCUGCACU,-1.34
CACAGACAACACGCACCCACACAGACACAGAGGGAAGGGGUUGGGAUGGGGACAGGGUGCACAGCAGGGCGAGGUAGGACCCCAGCCCCU,0.232
GCAGGAAGUAAAAACAAAUGGAAAUGCUUCGGAUAGUGGCAGGGGUGGGGGUUGCUAAGGAAAGGGUGGGAUGGGAGUGGGUAAAGAGGU,1.68
UGCCUCGGGAGGAGCUGUUUGUGACAUCCAAGCUGUGGAACACCAAGCACCACCCCGAGGAUGUGGAGCCUGCCCUCCGGAAGACUCUGG,-1.22
AAGUCCUGUGCUACACAUCGUAUGUACCGAAUCGGGGUUUUGGGUUUUGGGUUUUGGAAAGUAUUAUGUUACGCCGUUCGGAUCUGCACU,-1.16
UGUCCAGCUCUGAAGGGCAAAGUGCAGAAGAUCCUAAUCUGGAAGUGGGGUCAGCCACCAUCUCCCACACCAGUGCCUCGGCCUCCAGAU,0.717
UGGCCCUGGUGGCAUGCGGGGAGGAAGAGGUGGCCUCAUGGAUCGUGGUGGUCCCGGGGGAAUGUUCAGAGGUGGCCGUGGUGGAGACAG,-0.762
CACGGACAACACGCACCCACACAGACACAGAGGGAAGGGGUUGGGAUGGGGACAGGGUGCACAGCAGGGCGGGGUAGGACCCCAGCCCCU,1.31

# For quick reference, copied from above (sample 1):
Oligonucleotide,E-score
CCGTGCTC,-0.254
GGCTTTAA,0.0873
ACTTTCTA,0.178
ACTTTACG,0.217
CCATTAAC,0.245
CTGTATTC,0.144
